Assay results collected from several papers.
Protocols differ between the studies behind these lines. Values joined by “and” are separate records of one study, mostly repeats; a detail may differ. Numbers after ± are the reported error.
Cell line: MDCK

SMILES	effect on	concentration	time	pH	setting	measurement	value
CC(C)n1nccc1-c1ncccc1COc1cccc(O)c1C=O	–	1 µM	90 min	pH 7.4 apical, 7.4 basolateral	–	Papp A to B	23.5 ×10⁻⁶ cm/s and 32 ×10⁻⁶ cm/s
C[C@@H]1COCCN1c1nc(-c2cnc(N)cn2)nc2c1C[C@@H]1COCCN21	–	1 µM	20 (unit not given)	–	–	Papp B to A	68.7 ×10⁻⁶ cm/s
CC(=O)N[C@@H](CS)C(=O)O	–	–	–	–	–	Papp	134 ×10⁻⁶ cm/s
CC(=O)N[C@H]1[C@H]([C@H](O)[C@H](O)CO)OC(C(=O)O)=C[C@@H]1N=C(N)N	cell morphology	–	–	–	–	minimum cytotoxic concentration	> 100 µM
CC(=O)Nc1ccc(O)cc1	permeability basolateral to apical	1 µM	90 min	pH 7.4 apical to 7.4 basolateral	–	Papp	10.5 ×10⁻⁶ cm/s and 14.6 ×10⁻⁶ cm/s
Cc1c(-c2cc(Nc3ccncn3)c(=O)n(C)c2)cccc1N1CCc2c(sc3c2CCCC3)C1=O	–	10 µM	3 h	–	–	apparent permeability A-B	13.5 ×10⁻⁶ cm/s
C[C@@H]1COCCN1c1nc(-c2nnc(N)s2)nc2c1C[C@@H]1COCCN21	–	1 µM	20 (unit not given)	–	–	Papp A to B	12.2 ×10⁻⁶ cm/s
N[C@@H](CC(=O)N1CCn2c(nnc2C(F)(F)F)C1)Cc1cc(F)c(F)cc1F	–	–	–	–	–	Papp	4.75 ×10⁻⁶ cm/s
Cn1cc(-c2cccc(N3CCc4c(sc5c4CCCC5)C3=O)c2CO)cc(Nc2ccncn2)c1=O	–	10 µM	3 h	–	–	apparent permeability A-B	6.6 ×10⁻⁶ cm/s
CC(N)C12CC3CC(CC(C3)C1)C2 (stereo not shown)	cell morphology	–	–	–	–	minimum cytotoxic concentration	> 200 µM
C[C@@H](c1ncncc1F)[C@](O)(Cn1cncn1)c1ccc(F)cc1F	permeability basolateral to apical	1 µM	90 min	pH 6.5 apical to 7.4 basolateral	–	Papp	57.6 ×10⁻⁶ cm/s and 58.2 ×10⁻⁶ cm/s
Cn1cc(-c2cccc(N3CCc4cc(C(C)(C)C)ccc4C3=O)c2CO)cc(Nc2ccncn2)c1=O	–	10 µM	3 h	–	–	apparent permeability B-A	1.6 ×10⁻⁶ cm/s
C[C@@H]1COCCN1c1nc(-c2cnc(N)c(C(F)(F)F)c2)nc2c1C[C@@H]1COCCN21	–	1 µM	20 (unit not given)	–	–	Papp A to B	109 ×10⁻⁶ cm/s
Cn1cc(-c2cccc(N3CCn4c(cc5c4CCCC5)C3=O)c2CO)cc(Nc2ccncn2)c1=O	–	10 µM	3 h	–	–	apparent permeability A-B	10.2 ×10⁻⁶ cm/s
COCCc1ccc(OCC(O)CNC(C)C)cc1 (stereo not shown)	permeability	–	–	–	–	Papp	53.5 ± 6.05 ×10⁻⁶ cm/s
CCn1c(=O)c2c(nc(/C=C/c3ccc(OC)c(OC)c3)n2C)n(CC)c1=O	–	1 µM	90 min	pH 7.4 apical, 7.4 basolateral	basolateral to apical	mass recovery	88 ± 12%
Nc1cc(C(F)(F)F)c(-c2nc(N3CCOCC3)nc(N3CCOCC3)n2)cn1	–	1 µM	20 (unit not given)	–	–	Papp A to B	179 ×10⁻⁶ cm/s
Cn1cc(-c2cccc(N3CCOc4cc(C(C)(C)C)ccc4C3=O)c2CO)cc(Nc2ccncn2)c1=O	–	10 µM	3 h	–	–	apparent permeability A-B	6 ×10⁻⁶ cm/s
NC(=O)c1ncn([C@@H]2O[C@H](CO)[C@@H](O)[C@H]2O)n1	cell morphology	–	–	–	–	minimum cytotoxic concentration	> 100 µM

Some of these lines once more:
SMILES	effect on	concentration	time	pH	setting	measurement	value
Cc1c(-c2cc(Nc3ccncn3)c(=O)n(C)c2)cccc1N1CCc2c(sc3c2CCCC3)C1=O	–	10 µM	3 h	–	–	apparent permeability A-B	13.5 ×10⁻⁶ cm/s
C[C@@H]1COCCN1c1nc(-c2nnc(N)s2)nc2c1C[C@@H]1COCCN21	–	1 µM	20 (unit not given)	–	–	Papp A to B	12.2 ×10⁻⁶ cm/s
N[C@@H](CC(=O)N1CCn2c(nnc2C(F)(F)F)C1)Cc1cc(F)c(F)cc1F	–	–	–	–	–	Papp	4.75 ×10⁻⁶ cm/s
